Results collected from several papers.
Parts stem from different laboratories: compare values within a part only. Changes are numbered by the printed parent chain.

Set 1
Target: Sal-like protein 4, full length isoform A (SALL4, Homo sapiens, UniProt Q9UJQ4, residues 1-1053)
Chain of UniProt Q9UJQ4 (whole entry, looked up): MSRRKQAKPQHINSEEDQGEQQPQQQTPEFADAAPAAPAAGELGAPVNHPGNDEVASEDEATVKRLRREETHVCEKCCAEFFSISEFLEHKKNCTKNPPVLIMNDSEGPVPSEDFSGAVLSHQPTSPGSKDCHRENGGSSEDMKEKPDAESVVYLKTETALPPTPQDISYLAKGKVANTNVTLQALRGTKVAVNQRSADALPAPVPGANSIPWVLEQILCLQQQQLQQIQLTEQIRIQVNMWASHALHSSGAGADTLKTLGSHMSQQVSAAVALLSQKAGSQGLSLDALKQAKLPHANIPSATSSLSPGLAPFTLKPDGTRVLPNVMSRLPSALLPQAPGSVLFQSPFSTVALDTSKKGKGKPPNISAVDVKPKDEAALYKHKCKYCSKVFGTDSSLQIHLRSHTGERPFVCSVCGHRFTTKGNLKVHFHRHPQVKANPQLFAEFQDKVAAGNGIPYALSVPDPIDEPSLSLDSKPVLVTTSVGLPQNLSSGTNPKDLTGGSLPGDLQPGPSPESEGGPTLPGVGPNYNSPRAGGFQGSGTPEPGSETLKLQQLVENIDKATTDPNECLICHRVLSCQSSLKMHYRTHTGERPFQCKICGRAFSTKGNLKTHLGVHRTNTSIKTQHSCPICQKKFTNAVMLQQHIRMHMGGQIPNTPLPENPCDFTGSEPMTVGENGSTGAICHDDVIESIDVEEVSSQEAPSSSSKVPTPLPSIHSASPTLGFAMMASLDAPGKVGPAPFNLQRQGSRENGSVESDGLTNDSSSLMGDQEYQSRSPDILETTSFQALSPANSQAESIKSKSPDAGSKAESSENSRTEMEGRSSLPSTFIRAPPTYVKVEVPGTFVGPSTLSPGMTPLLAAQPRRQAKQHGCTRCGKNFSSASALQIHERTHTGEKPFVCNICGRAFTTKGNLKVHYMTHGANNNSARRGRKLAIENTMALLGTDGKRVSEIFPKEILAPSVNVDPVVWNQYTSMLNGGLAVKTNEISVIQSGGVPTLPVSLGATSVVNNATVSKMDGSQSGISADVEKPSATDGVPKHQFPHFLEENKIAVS
Technique: universal PBM
Molecule type: double-stranded DNA, one strand shown
Matrix: in vitro
Concentration: 600 nM
Notes: 8-mer, flanks averaged, mean of replicates
Direction: higher = stronger binding
| Oligonucleotide | E-score |
| --- | --- |
| ACGGAATG | -0.057 |
| ACCATGGA | -0.146 |
| CAGTGGGG | -0.35 |
| TAGTGTCA | 0.13 |
| GAACGAGA | 0.0235 |
| AAATTACT | 0.342 |

Set 2
Target: CCNF, cyclin fold, Cln2 fusion (human)
Technique: yeast growth competition, sequencing
Matrix: yeast
Notes: strong parent motif
Baseline: not given
Direction: higher = stronger binding
Starting sequence: MICAL3 docking peptide (human); LQLRRQLSFSEDS; partner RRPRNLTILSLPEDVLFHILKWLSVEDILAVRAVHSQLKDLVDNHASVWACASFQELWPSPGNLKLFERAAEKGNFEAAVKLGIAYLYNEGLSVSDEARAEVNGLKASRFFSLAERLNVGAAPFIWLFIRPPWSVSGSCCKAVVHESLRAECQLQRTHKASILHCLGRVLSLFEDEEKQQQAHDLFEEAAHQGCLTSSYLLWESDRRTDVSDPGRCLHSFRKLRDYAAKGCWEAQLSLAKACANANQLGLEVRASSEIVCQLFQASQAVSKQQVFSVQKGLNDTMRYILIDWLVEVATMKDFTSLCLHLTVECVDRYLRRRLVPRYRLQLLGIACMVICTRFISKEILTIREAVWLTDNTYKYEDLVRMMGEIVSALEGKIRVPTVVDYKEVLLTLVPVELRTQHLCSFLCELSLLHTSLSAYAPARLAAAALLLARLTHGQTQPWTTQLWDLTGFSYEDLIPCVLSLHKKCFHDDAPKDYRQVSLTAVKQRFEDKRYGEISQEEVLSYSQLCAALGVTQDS
| Variant | normalised enrichment score |
| --- | --- |
| D12V | 5.55 |
| L3H | 2.41 |
| S10N | 5.03 |
| R4Q | 2.93 |
| D12F | 6.13 |
| Q2N | 5.51 |

Set 3
Target: RNA binding protein fox-1 homolog 2, RRM domain, GST-SBP tag (RBFOX2, Homo sapiens, UniProt O43251-10, residues 100-194)
Technique: RNA Bind-n-Seq
Molecule type: RNA
Matrix: in vitro
Concentration: 365 nM
Notes: natural RNA segment, single round, ends assumed
Baseline: no-protein control
Direction: higher = stronger binding
All sequences stand within: GGGAGUUCUACAGUCCGACGAUC … UGGAAUUCUCGGGUGCCAA
Target sequence (chain): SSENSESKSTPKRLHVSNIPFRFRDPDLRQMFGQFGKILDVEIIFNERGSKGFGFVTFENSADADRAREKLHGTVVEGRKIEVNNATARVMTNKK
| Oligonucleotide | RBNS enrichment (R) |
| --- | --- |
| UAAACCCAGUGUCAGGUCUAGGAAAUUAAUGGCUAUUCUUCCCCAGAUACAUUCUGGCUUAUUUGAGAUACAUGAUUCUCUUAGAAUCCUGUCCCUUGGUUCAGGAAAGU | 0.278 |
| CCUCAUCUGGAGUUUGAUGGUUUACAGAUGUCUGACAGUUCCUCAGCUCUUGUGCCAAGGAGGAGUGGUUGUUGUUGUUUUGUUUUGAAGACUUAAACUCUGCACAAAGA | 2.14 |
| AAGAACAAAAACUGUAGUGUUUCACCUUUAAAUGCAGUGUUGAAGAGGGAGCCUUUCUCUAAGCCCUGCACUAACCCACUCCUCCCAAGACUCUUGUGGAGUGACAGUUC | 0.212 |
| CCAAAUGUCACUUCUGCAUAAAGCAUGUAUGUCAUCUAUUUUUUCUUCAAUAAAGAGAUUUAAUAGCCAUUUCAAGAAAUCCCAUAAAGAACCUCUCUAUGUCCCUUUUU | 3.93 |
| GCCCUGCUCAGGAUAAUGUGCUAUGAGCCCUCAUCUGACUCUCAGUUUGUACUGGAGAACCAUACAGGACUUACCGCACCUUACCCCAUCCACUACCAUGUGCACUGACU | 0.284 |
| AAGUGAUUGGUUUAUAUCAGAUUCAGAGGAGCCCAAUUAACUCCAGUGUAGGUAAUGUAAAACAGUAAGCUCAAAUUGCAGAAGCCAGUAUCCUACAGAAAUUUAAGUAG | 0.524 |
| GGACACAUCUCUCUAUGCAAUUUGUCCCCACCCCACCCCGGCAUGAGAGGCCACGCAGCUCCCGACCCUCCGGCCUCCUCUCGCACAUGGAAGGUAUCAGCACUUUGAGA | 1.29 |
| AUUUAUAGGAGGCAAACUGUAUAAAUGAUAGGUAUGAAAUAGAAUAAGAAGUAAAAUACAUCAGCAGAUUUUCAUACUAGUAUGUUGUAAUGCUGUCUUUUCUAUGGUGU | 0.465 |

Mixed results
| Molecule | target | test | system | conditions | scale | quantity | result |
| --- | --- | --- | --- | --- | --- | --- | --- |
| PhoQ, residues 284 288 289 292 302 303 SSCCRF | PhoP, residues 12 14 15 18 19 LHSVW (Escherichia coli, UniProt P23836) | Sort-seq, refers to: YFP reporter | E. coli | PhoQ-PhoP variant library, together with: 10 µM Mg2+ | baseline: high Mg2+ state, higher = stronger signaling | fold induction | 2.75 |

For quick reference, copied from above (set 1):
| Oligonucleotide | E-score |
| --- | --- |
| TAGTGTCA | 0.13 |
| GAACGAGA | 0.0235 |
